Assay results gathered from unrelated publications.
Each line is one published result; not all experiments were run side by side. “And” joins repeats or separate records; there may be more than shown. ± marks the error that the study gave.
Sequence of UniProt O14980 (whole entry, looked up): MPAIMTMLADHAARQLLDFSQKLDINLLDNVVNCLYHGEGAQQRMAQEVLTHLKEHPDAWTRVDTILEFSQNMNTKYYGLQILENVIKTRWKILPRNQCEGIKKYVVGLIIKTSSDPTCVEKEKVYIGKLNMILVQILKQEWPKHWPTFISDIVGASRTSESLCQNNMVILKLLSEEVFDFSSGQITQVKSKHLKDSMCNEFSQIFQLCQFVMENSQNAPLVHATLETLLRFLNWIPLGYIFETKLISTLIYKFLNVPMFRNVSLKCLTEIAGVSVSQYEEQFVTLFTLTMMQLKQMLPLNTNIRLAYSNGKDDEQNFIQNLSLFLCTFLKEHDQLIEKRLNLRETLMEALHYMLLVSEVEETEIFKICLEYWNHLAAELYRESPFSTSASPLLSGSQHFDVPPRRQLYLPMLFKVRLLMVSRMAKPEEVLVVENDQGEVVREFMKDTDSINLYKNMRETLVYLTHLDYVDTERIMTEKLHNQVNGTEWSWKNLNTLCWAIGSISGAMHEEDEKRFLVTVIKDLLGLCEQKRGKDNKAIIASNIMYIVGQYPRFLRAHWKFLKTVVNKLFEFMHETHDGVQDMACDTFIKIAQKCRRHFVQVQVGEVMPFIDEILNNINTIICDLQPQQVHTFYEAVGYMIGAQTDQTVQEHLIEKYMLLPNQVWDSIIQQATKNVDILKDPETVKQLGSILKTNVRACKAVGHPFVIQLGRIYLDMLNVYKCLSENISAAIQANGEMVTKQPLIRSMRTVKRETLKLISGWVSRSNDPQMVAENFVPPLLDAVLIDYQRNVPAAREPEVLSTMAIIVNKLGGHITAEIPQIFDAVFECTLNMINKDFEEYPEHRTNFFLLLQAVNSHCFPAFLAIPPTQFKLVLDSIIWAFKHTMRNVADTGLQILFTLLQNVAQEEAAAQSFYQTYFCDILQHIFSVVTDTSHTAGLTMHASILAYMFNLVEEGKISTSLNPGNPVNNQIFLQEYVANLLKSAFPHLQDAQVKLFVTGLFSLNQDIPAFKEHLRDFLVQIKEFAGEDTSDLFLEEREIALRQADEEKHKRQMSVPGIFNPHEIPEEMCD

SMILES | target or system | test | test system | conditions | how to read | endpoint | result
Oc1ccc(Cl)c(-c2cc(Cl)c(Cl)cc2Cl)c1Cl | – | enantioselective gas chromatography | racemized sample | column temperature 200 °C | – | enantiomeric fraction | 0.5
S=c1oc(-c2ccccc2)nn1CN1CCN(Cc2ccccc2)CC1 | – | – | Wistar rat female | oral, 300 mg/kg, acute toxicity OECD 423 | – | serum creatinine | 0.63 ± 0.05 mg/dL
COc1ccc2nc3cc(Cl)ccc3c(Nc3cc(CN4CCCC4)c(O)c(CN4CCCC4)c3)c2n1 | – | – | mouse, blood | oral, 57 mg/kg, tolerability, mean | – | mean platelet volume | 6.01 fL
C=CC(=O)Nc1cc(Nc2nccc(Nc3cc(Cl)c(F)cc3C(C)(C)O)n2)c(OC)cc1N1CC[C@@H](N(C)C)C1 | – | – | human patients | oral, 300 mg, treatment-emergent adverse events | – | patients with rash | 45.1%
CC(=O)N[C@H]1CC[C@H](NC(=O)CN2CCN(c3nncc(-c4ccc(C)cc4)n3)CC2)CC1 | – | – | male monkeys | – | – | NOAEL | 30 mg/kg/day
CCc1ccc(CC/C=C/c2ccc3c(c2)C(=O)CC3)cc1 | – | – | Sprague-Dawley rat, male | oral, 120 mg/kg/day, 14 days | – | Eosinophil percentage | 0.7%
CC(=O)c1c(C)c2cnc(Nc3ccc(C4CCN(CCS(C)(=O)=O)CC4)cn3)nc2n(C2CCCC2)c1=O | – | – | HR+/HER2- advanced breast cancer patients | oral, 25 mg | – | patients with TEAE grade ≥3 | 33.3%
Cn1cncc1-c1c(F)cncc1NC(=O)c1c(N)nn2cc(F)cnc12 | – | – | human patients | oral, dose not given, all doses | – | grade ≥3 white blood cells decreased | 4%
N=C(N)NCCC[C@@H](NC(=O)[C@@H](N)Cc1ccccc1)C(=O)N[C@@H](Cc1ccccc1)C(=O)N[C@@H](CCCCN)C(N)=O | – | LC-MS | human | 5 mg, 5.833 h | – | mean amount excreted in urine | 1.08e+06 ng
C[C@H]1CN(c2n[nH]c3nc(N[C@H]4CC[C@H](NS(=O)(=O)CCC(F)(F)F)CC4)ncc23)CCO1 | Exportin-1 (XPO1, Homo sapiens, UniProt O14980) | inhibitor, Kinobeads competition profiling | – | 20 µM | relative to: vehicle | relative abundance | 1.16
COc1ccnc(C(=O)N[C@H]2COC(=O)[C@H](Cc3ccccc3)[C@@H](OC(=O)C(C)C)[C@H](C)OC2=O)c1OCOC(=O)C(C)C | – | – | field soil, loam | actual, southern France | – | DT50 | 3.09 days
CN[C@@H](C)C(=O)N[C@H]1CN(S(=O)(=O)c2cccc(S(=O)(=O)N3CC[C@H]4CC[C@@H](C(=O)NC(c5ccccc5)c5ccccc5)N4C(=O)[C@@H](NC(=O)[C@H](C)NC)C3)c2)CC[C@H]2CC[C@@H](C(=O)NC(c3ccccc3)c3ccccc3)N2C1=O | – | – | patients with advanced solid tumours | 0.6 mg, phase I monotherapy | – | treatment-related ALT elevation incidence | 0%
CCCCCCCCCCCCCCCC(=O)N[C@@H](CCC(=O)NCCCC[C@H](NC(=O)[C@H](CC(=O)O)NC(=O)[C@H](CO)NC(=O)[C@@H](NC(=O)[C@H](Cc1ccccc1)NC(=O)[C@@H](NC(=O)CNC(=O)[C@H](CCC(N)=O)NC(=O)[C@H](CO)NC(=O)[C@@H](N)Cc1c[nH]cn1)[C@@H](C)O)[C@@H](C)O)C(=O)N[C@@H](CO)C(=O)N[C@@H](CCC(=O)O)C(=O)N[C@@H](Cc1ccc(O)cc1)C(=O)N[C@@H](CC(C)C)C(=O)N[C@@H](CC(=O)O)C(=O)N[C@@H](CO)C(=O)N[C@@H](CCC(=O)O)C(=O)N[C@@H](CCCNC(=N)N)C(=O)N[C@@H](C)C(=O)N[C@@H](CCCNC(=N)N)C(=O)N[C@@H](CC(=O)O)C(=O)N[C@@H](Cc1ccccc1)C(=O)N[C@H](C(=O)N[C@@H](C)C(=O)N[C@@H](Cc1c[nH]c2ccccc12)C(=O)N[C@@H](CC(C)C)C(=O)N[C@@H](CCC(=O)O)C(=O)N[C@@H](C)C(=O)NCC(=O)NCC(=O)O)C(C)C)C(=O)O | – | item: decreased appetite | human, CrCl ≥45 to <60 mL/min | subcutaneous, 100 µg single dose | – | treatment-related adverse events | 0%
COc1ccc(-c2c(-c3ccc(C#N)c(F)c3)nc(N3CCC(N)CC3)n(C)c2=O)cc1F | – | item: esophageal ulcer | human patients | oral, 60 mg, dose expansion | – | serious TEAE incidence | 0%
CC[C@H](C)[C@H](NC(=O)[C@H](Cc1ccccc1)NC(=O)[C@H](CCC(=O)O)NC(=O)[C@H](CCCCNC(=O)COCCOCCNC(=O)COCCOCCNC(=O)CC[C@H](NC(=O)CCCCCCCCCCCCCCCCC(=O)O)C(=O)O)NC(=O)[C@H](C)NC(=O)[C@H](C)NC(=O)[C@H](CCC(N)=O)NC(=O)CNC(=O)[C@H](CCC(=O)O)NC(=O)[C@H](CC(C)C)NC(=O)[C@H](Cc1ccc(O)cc1)NC(=O)[C@H](CO)NC(=O)[C@H](CO)NC(=O)[C@@H](NC(=O)[C@H](CC(=O)O)NC(=O)[C@H](CO)NC(=O)[C@@H](NC(=O)[C@H](Cc1ccccc1)NC(=O)[C@@H](NC(=O)CNC(=O)[C@H](CCC(=O)O)NC(=O)C(C)(C)NC(=O)[C@@H](N)Cc1cnc[nH]1)[C@@H](C)O)[C@@H](C)O)C(C)C)C(=O)N[C@@H](C)C(=O)N[C@@H](Cc1c[nH]c2ccccc12)C(=O)N[C@@H](CC(C)C)C(=O)N[C@H](C(=O)N[C@@H](CCCNC(=N)N)C(=O)NCC(=O)N[C@@H](CCCNC(=N)N)C(=O)NCC(=O)O)C(C)C | – | item: Deaths | type 2 diabetes patients | dose not given | relative to: subjects | adverse event incidence | 0%
C=CC(=O)N1CC[C@H](n2nc(C#Cc3cc(OC)cc(OC)c3)c3c(N)ncnc32)C1 | – | – | patients with advanced solid tumours | oral, dose not given, Malaise, any grade, QD, added: ferric citrate hydrate | – | adverse drug reaction incidence | 0%
CNC(=O)c1cc(Oc2ccc(NC(=O)Nc3cc(C(C)(C)C)nn3-c3ccc4ncccc4c3)c(F)c2)ccn1 | – | ejection fraction decreased, NCI CTC v3.0 | human patients | oral, all dose levels | – | related SAE | 2%
O=S(=O)(Nc1ccccc1)c1ccc(NC(=S)Nc2ccccc2)cc1 | – | item: ALT | female mouse, blood | oral, 80 mg/kg daily, 14 days | – | serum enzyme activity | 65.5 U/L
CC[C@H](C)[C@H](NC(=O)[C@H](CCCNC(=N)N)NC(=O)[C@H](CCSC)NC(=O)[C@H](C)N)C(=O)N[C@@H](CO)C(=O)N[C@@H](CCCNC(=N)N)C(=O)N[C@H](C(=O)N[C@H](C(=O)N[C@@H](CC(C)C)C(=O)N[C@H](CC(=O)O)C(=O)N[C@@H](Cc1ccccc1)C(=O)N[C@@H](CC(C)C)C(=O)N[C@@H](Cc1ccccc1)C(=O)N[C@@H](CC(C)C)C(=O)N[C@@H](CCCNC(=N)N)C(=O)N[C@@H](CCCCN)C(=O)N[C@@H](CCCCN)C(=O)O)[C@@H](C)CC)[C@@H](C)CC | – | H&E staining | CD1 mice, lung | intratracheal, 50 µg/day, one week | – | lung toxicity | not toxic
COc1cccc(Oc2ccccc2NC(=O)CNC(=O)c2cccc3ccccc23)c1 | – | – | esterase-deficient SCID mice, male, blood | oral, 40 mg/kg/day, 14 days, toxicity study | relative to: white cells | basophils | 0% and 1.6%

SMILES | target or system | test | test system | conditions | how to read | endpoint | result
CN1CCN(S(=O)(=O)c2cc([N+](=O)[O-])ccc2N(CCOS(C)(=O)=O)CCOS(C)(=O)=O)CC1 | – | – | naive NOD/SCID mice, pooled blood | intraperitoneal, 12.5 mg/kg, week 4 | – | blood urea nitrogen | 11.4 mmol/L
C[C@]1(CO)Cc2ncn(-c3ccc(C#N)c(Cl)c3)c2C(=O)O1 | – | – | human | 80 mg single dose | – | subjects with drug-related dysgeusia | 14.3%
CC(C)CC(=O)OC[C@H]1O[C@@](C#N)(c2ccc3c(N)ncnn23)[C@H](O)[C@@H]1O | – | – | human whole blood | 5 µM, 15 min | – | remaining compound | 22.4 ± 1.69%
[O-][S+]1CCc2nc(N3CCC(c4ncc(Cl)cn4)CC3)nc(NC3(CO)CCC3)c21 (stereo not drawn) | – | – | idiopathic pulmonary fibrosis patients | 18 mg twice daily | – | Nasopharyngitis adverse events | 40%
C[C@@H]1OC(=O)NN=C1c1ccc(-c2ccc(F)cc2)c(C(F)(F)F)c1 | – | phase I trial, item: Dyspnoea worst grade 2 | human patients | 20 mg loading then 1 mg daily | – | patients with adverse event | 50%
C[C@@H](NC(=O)N1C(=O)[C@H](Cc2ccnc(N)c2)[C@H]1C(=O)O)C1CCCCC1 | – | – | healthy adult Chinese volunteers | continuous intravenous infusion, 0.3 mg/kg/h, 5-day infusion, CTCAE 5.0 grading | – | incidence of urine occult blood positive | 12.5%
O=C(C1CCCCC1)N1CC(=O)N2CCc3ccccc3[C@@H]2C1 | – | – | NMRI mouse, female, S. mansoni-infected, plasma | oral, 400 mg/kg, dosed as racemate | – | AUC of (R)-enantiomer | 11.4 µM·h
NCCCC[C@@H]1NC(=O)[C@@H](Cc2c[nH]c3ccccc23)NC(=O)[C@H](c2ccccc2)NC(=O)[C@@H]2C[C@@H](OC(=O)NCCN)CN2C(=O)[C@H](Cc2ccccc2)NC(=O)[C@H](Cc2ccc(OCc3ccccc3)cc2)NC1=O | – | – | healthy volunteers, female | 600 µg twice daily, 1.0 h, post hoc | – | placebo-corrected QTcF change | 5.5 ms
CO[C@H]1C[C@@H]2CC[C@@H](C)[C@@](O)(O2)C(=O)C(=O)N2CCCC[C@H]2C(=O)O[C@H]([C@H](C)C[C@@H]2CC[C@@H](OC(=O)NCCOCCOCCOCCOCCOCCOCCOCCOCCC(=O)N3CCc4cc(Cn5nc(-c6ccc7oc(N)nc7c6)c6c(N)ncnc65)ccc4C3)[C@H](OC)C2)C[C@@H](O)[C@H](C)/C=C(\C)[C@@H](O)[C@@H](OC)C(=O)[C@H](C)C[C@H](C)/C=C/C=C/C=C/1C | – | – | patients with advanced solid tumours | intravenous, 10 mg weekly, any grade | – | constipation incidence | 0%
Cn1cc(-c2nc(N[C@@H]3CCCC[C@@H]3N)c(F)c3c2C(=O)NC3)cn1 | – | any bleeding | patients with relapsed or refractory AML | oral, 60 mg once daily | – | adverse events | 75%
O=C1Nc2cc3[nH]nc(-c4ccncc4)c3cc2CN1Cc1ccccc1 | – | CTCAE v4.03 | advanced solid tumour patients | intravenous, 4.8 mg/kg | – | patients with macular oedema | 0%
C[C@]1(O)C[C@@](N)(c2ccc(-c3nc4n(c3-c3ccccc3)COc3ccncc3-4)cc2)C1 | – | – | human, advanced or metastatic solid tumours | 20 mg once daily, phase I dose escalation | – | patients with Anemia TEAE | 50%
O=C(Nc1ccccc1)C1CCN(C(=O)Oc2cccnc2)CC1 | – | adverse event reporting | healthy women | oral, 20 mg | – | subjects with tremor | 0%
CC(C)C[C@H](NC(=O)[C@H](CCCCN)NC(=O)OCC1c2ccccc2-c2ccccc21)C(=O)N[C@H](C(=O)N[C@@H](Cc1ccccc1)C(=O)N[C@@H](Cc1ccccc1)C(=O)N[C@@H](CCCCN)C(=O)NCC(=O)N[C@@H](Cc1ccccc1)C(=O)N[C@@H](C)C(=O)N[C@@H](Cc1c[nH]c2ccccc12)C(=O)N[C@@H](CC(N)=O)C(=O)N[C@H](C(=O)N[C@H]1CSSC[C@@H](C(=O)N[C@@H](Cc2c[nH]cn2)C(=O)N[C@@H](CCCNC(=N)N)C(=O)N[C@@H](CCCNC(=N)N)C(=O)N[C@@H](C)C(=O)N[C@@H](CC(N)=O)C(N)=O)NC(=O)[C@H](C(C)C)NC(=O)[C@H](CCCNC(=N)N)NC(=O)[C@H](C(C)C)NC(=O)CNC(=O)[C@H](CC(N)=O)NC(=O)[C@H](CCCNC(=N)N)NC(=O)[C@H](Cc2ccc(O)cc2)NC(=O)[C@H](C(C)C)NC1=O)C(C)C)C(C)C | – | – | ICR mice, serum | intraductal mammary, 5 mg/kg, day 5 | – | blood urea nitrogen | 10.5 ± 0.64 mmol/L
Cn1nccc1[C@]1(CNC(=O)c2ccc(F)c(F)c2-c2ccc(C(F)(F)F)cc2)NC(=O)NC1=O | – | item: CYP1A2 mRNA | sandwich-cultured human hepatocytes | 48 h | no induction up to value | CYP1A2 induction | > 61 µM
C[C@H](O)c1cnc(NS(=O)(=O)c2ccc(C(F)(F)F)c(Cl)c2)nc1 | – | – | hepatocytes, HSD17B13 knockout with AAV control, C57BL/6J mouse, male | 1 µM | – | scaled intrinsic clearance | < 20 mL/min/kg
COc1ncccc1-c1cnn2ccc(N3CCN(C(=O)OC(C)C)CC3)nc12 | – | – | rat, thoracic spinal cord | oral, 30 mg/kg, 1.5 h, saline pretreated | – | concentration | 6.4 µM
Oc1ccc(CSCc2ccc(O)cc2)cc1 | – | – | ICR mice male | oral, 1500 mg/kg, day 8, acute toxicity | relative to: day 1 | body weight gain | 4.15 ± 2.89 g
COc1cc2c(Oc3ccc4[nH]c(C)cc4c3F)ccnc2cc1OCC1(N)CC1 | – | – | paediatric recurrent refractory sarcoma | 8 mg/kg | – | grade 1 or 2 Hematochezia | 6.7%

For quick reference, copied from above:
SMILES | target or system | test | test system | conditions | how to read | endpoint | result
CCc1ccc(CC/C=C/c2ccc3c(c2)C(=O)CC3)cc1 | – | – | Sprague-Dawley rat, male | oral, 120 mg/kg/day, 14 days | – | Eosinophil percentage | 0.7%
C[C@]1(O)C[C@@](N)(c2ccc(-c3nc4n(c3-c3ccccc3)COc3ccncc3-4)cc2)C1 | – | – | human, advanced or metastatic solid tumours | 20 mg once daily, phase I dose escalation | – | patients with Anemia TEAE | 50%
C[C@@H]1OC(=O)NN=C1c1ccc(-c2ccc(F)cc2)c(C(F)(F)F)c1 | – | phase I trial, item: Dyspnoea worst grade 2 | human patients | 20 mg loading then 1 mg daily | – | patients with adverse event | 50%
NCCCC[C@@H]1NC(=O)[C@@H](Cc2c[nH]c3ccccc23)NC(=O)[C@H](c2ccccc2)NC(=O)[C@@H]2C[C@@H](OC(=O)NCCN)CN2C(=O)[C@H](Cc2ccccc2)NC(=O)[C@H](Cc2ccc(OCc3ccccc3)cc2)NC1=O | – | – | healthy volunteers, female | 600 µg twice daily, 1.0 h, post hoc | – | placebo-corrected QTcF change | 5.5 ms
